Published values of several laboratories.
Parts stem from different laboratories: compare values within a part only.

Sample 1
Target: Interferon regulatory factor 7, full length, phosphomimetic (IRF7, Homo sapiens, UniProt Q92985, residues 1-503, S471D/S472D/S475D/S476D/S477D/S483D/S484D/S487D)
Chain of UniProt Q92985 (whole entry, unmodified, looked up): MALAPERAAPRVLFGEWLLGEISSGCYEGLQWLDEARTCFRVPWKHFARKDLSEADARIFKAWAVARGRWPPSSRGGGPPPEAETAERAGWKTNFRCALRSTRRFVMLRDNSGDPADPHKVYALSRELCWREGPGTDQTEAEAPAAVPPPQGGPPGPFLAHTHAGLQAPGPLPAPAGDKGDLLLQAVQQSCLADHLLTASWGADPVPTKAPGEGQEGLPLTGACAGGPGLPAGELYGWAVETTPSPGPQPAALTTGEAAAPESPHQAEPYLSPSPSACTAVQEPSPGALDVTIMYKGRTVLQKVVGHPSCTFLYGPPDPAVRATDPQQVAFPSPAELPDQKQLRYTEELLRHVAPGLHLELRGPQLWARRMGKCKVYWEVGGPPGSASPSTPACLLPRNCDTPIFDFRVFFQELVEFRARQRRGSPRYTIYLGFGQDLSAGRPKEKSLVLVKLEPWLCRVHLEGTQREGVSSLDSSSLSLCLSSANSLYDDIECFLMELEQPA
Method: protein-binding microarray
Form: double-stranded DNA, one strand shown
Sample: in vitro
Tested at: 2200 nM top
Setting: 60-bp whole probe
With: salmon DNA 0.4 mg/ml
Relative to: random background probes
Direction: higher = stronger binding
Constant ends, left off below: GCCTAGCAC … GTCTTGATTCGCTTGACGCTGCTG
Sequence	fitted relative affinity [z-score]
TCATTTCTCTCTGTGACACTGTGCTAG	2.51
TCATGCTTTCTTTTTGCACTGTGCTAG	4.72
TTAGGTTTCGACTTTCGGTAAGTGCTA	7.49
TTAGGTATCCTTCTCCTGTAGTGCTAG	1.19
GGTTTTCTCTGGTTCTTGCTGTGCTAG	2.33
GACAATCTCAGTTTCGAGACGTGCTAG	3.45
GACGGACTGCTACTACTGACGTGCTAG	0.321
GACGATCTCAGTTTCGGGACGTGCTAG	4.32
TAAGGACTGCTTCTCCTTTAGTGCTAG	0.781
TTAGGTATCGGTTTCGGCTAGTGCTAG	3.71
GTGTTTTCATTTTATGACAGCGTGCTA	5.12
TTAGATTTCGGGTATCGAGTAGTGCTA	2.54
GACGATTTCAGTATCGAGCCGTGCTAG	0.799
TCATGAACCATTTTGGTACTGTGCTAG	0.319
TCAGGTTTCTATATTTGACTGTGCTAG	1.92
TTAGGACTGGGGTTTCGGTTGGTGCTA	4.39
TTAGGTTGCCTTTTCCTTTAGTGCTAG	1.7
TACGGACTGGACTTTCGGGACGTGCTA	2.24
GAACATTTCCTTTACATTCCGTGCTAG	2.09
TTAGGTTTCGGTTGCGGTTAGTGCTAG	7.76
CCTTGTGTTACTTTCTACTTGTGCTAG	5.01
TTAGATCTCAGTTTCGGTTAGTGCTAG	7.35
TTAGGTCTCGGTTTCGGTAAGTGCTAG	3.86
TACGGACTGCTTATCCTGACGTGCTAG	0.636
GACGATTTGAGACTGGAGACGTGCTAG	0.086

Sample 2
Target: Histone acetyltransferase KAT6A, winged helix 1, GST fusion (KAT6A, Homo sapiens, UniProt Q92794, residues 1-85)
Method: protein binding microarray
Form: double-stranded DNA, one strand shown
Sample: in vitro
Tested at: not given
Setting: 8-mer, flanks averaged, mean of 2 arrays, mostly near background
Relative to: not given
Direction: higher = stronger binding
Residues (chain): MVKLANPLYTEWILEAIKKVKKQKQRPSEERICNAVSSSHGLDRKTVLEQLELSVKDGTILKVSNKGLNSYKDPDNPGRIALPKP
Sequence	E-score
ACTTAAAA	-0.114
GATGCAAA	-0.106
TAGAACCA	-0.202
AGCTCTCC	-0.083
CGAGAAAA	-0.134
CTGACCGC	0.314
CAGGTTAG	-0.0679
CCCTAAAA	-0.114
ACGTGTTG	-0.113
AGCCAATA	-0.0898
CCAAACCG	0.15
CTTCGATA	0.0553
AGCCCCGG	0.219
ATGTTTTG	-0.0629
CATGGCCA	-0.19
ACATACCG	0.206
ACTACAAT	0.071

Sample 3
Target: RNA binding protein fox-1 homolog 2, RRM domain, GST-SBP tag (RBFOX2, Homo sapiens, UniProt O43251-10, residues 100-194)
Method: RNA Bind-n-Seq
Form: RNA
Sample: in vitro
Tested at: 365 nM
Setting: natural RNA segment, single round, ends assumed
Relative to: no-protein control
Direction: higher = stronger binding
Construct (chain): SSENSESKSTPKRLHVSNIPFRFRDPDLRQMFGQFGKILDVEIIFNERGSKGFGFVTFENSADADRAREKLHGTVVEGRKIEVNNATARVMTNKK
Sequence	RBNS enrichment (R)
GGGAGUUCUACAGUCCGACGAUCGUGUUUUAUAUUGAGUGCACUUCUGUUCAUUUCCAUUGCUGCUUAUAUGCAGUGUUAGCCGAAUUAGAUUUACAAGACAAUCUAAGCUUUCCGGAUAAUUUUAUAUAUCAUGGAAUUCUCGGGUGCCAA	0.917
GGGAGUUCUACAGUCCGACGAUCAGACAGAAGGUCAAUGUUGUCCCCAUCCAUAGGGGUUGAAUUACCUUGCUGUUAAGUGGUCUUCCCCCAUUGGGAUCCUACAGUCCCACAGAUGAAAGCACAGUAGUAGCUGGAAUUCUCGGGUGCCAA	0.271
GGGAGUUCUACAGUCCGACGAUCAGAGCGAGAACCAUUUUGGAAACUGUAAUGUAACUUAUUUUUUCCUUUAACCUCGUCAUCAUUUUCUGUAGGGAAAAAAAAAAGAAAAAGAAAAAAUGAGAUUUUACAAGUGGAAUUCUCGGGUGCCAA	0.878
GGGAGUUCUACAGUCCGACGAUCUGUAGACGUGUUUCAGUGCCUCGUCUGAACAGGAGCCGUUUCACUUCUUUGAAACUCUACAUUUUCCACACGUCUGCUUCAUUUUCAAAAUGAAGGAUGUUUCCCGUAGGUGGAAUUCUCGGGUGCCAA	0.342
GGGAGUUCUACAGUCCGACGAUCUUAUUUUCCAUUUGACAUUAGGGCCUUUCCAAAAUGAAUGUGAGGAAUUGCUUUCACUUCAAGACUUUCCUUCUUUUCACUAAAACUCUAGAAGGUGUUACAAGGGGGAGUGGAAUUCUCGGGUGCCAA	0.457
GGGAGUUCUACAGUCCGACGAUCACAGUCCAAAGAGACUUUGCAAAACAUGAUAGGCAGGGACCUUUUCCUCUGUGUUUCAAUACCUAUAUACCUAUUGAACAAAGCAGUAGGUAGACAUUUCCUAAAGUUGAUGGAAUUCUCGGGUGCCAA	0.29
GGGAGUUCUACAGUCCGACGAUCAAUGGCCAUCCUCAGCAGGGUGGAGGGAGUGUGCGAGAAACCAGACACUUUGGUUUCUGUAAUCUUCACAGUGUUUAGGAAAAGAGAAAACAAAUCAAACAGCGCACACAUGGAAUUCUCGGGUGCCAA	0.349
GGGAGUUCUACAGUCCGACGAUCGGAUCCUCGGGACUCCCCAGACAGGCGUGUGUGAGUGUGUUCUGUCAUGCAGCCUCAGCCCAGGCUAACCCAGUCAGUGUUUUCACCACGUCUGACCUUUCUCUCUGCACUGGAAUUCUCGGGUGCCAA	0.293
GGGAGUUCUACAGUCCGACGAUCUGCCCUGAAGGAAGAAGACAUCAGUAGAAAAGGGAACUGACAGCACUGACUGCAAACUGUCUCUUGCUCCUGAACUUCAAUAGCUGCCUUCCUCACCGCAGAUGUCUGUCUGGAAUUCUCGGGUGCCAA	0.517
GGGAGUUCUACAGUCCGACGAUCUGUUUUAUAUGUUAAAAACAAAAUAAAGACAUCAACCAUUUCACAUAUAUUCUACUACUAAAGGUAUCAAUGGAACAUGAAGACGAGUAUUUAGGCAGAAGCAAAACAGGUGGAAUUCUCGGGUGCCAA	0.37
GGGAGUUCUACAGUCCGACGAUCAACUCCAAAAGUGCCUUAAAGCCAGGUUUGUGUCUCCUUUCAGGAGAGAGCGUGUAACGUCAGAUUUGUGCCUGUCUCGAACAUUCUGUCCUAAUCAUACUUAAACAUCAUGGAAUUCUCGGGUGCCAA	0.773
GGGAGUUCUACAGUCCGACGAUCAACAUUGUAUGUAUAUGUGUUUGCUUUGGGAGGAGGUGGCACUGUGUUAGUUGACAGUUGUGGGCUCAUGUAGUCUUUUUUGCCAUGAGUAGGAGCCCCUAGUGGGGCUGUGGAAUUCUCGGGUGCCAA	2.92

Sample 4
Substance: PhoQ, residues 284 288 289 292 302 303 TAVSDG
Method: Sort-seq
Refers to: YFP reporter
Sample: E. coli
Setting: PhoQ-PhoP variant library
With: 10 µM Mg2+
Relative to: high Mg2+ state
Direction: higher = stronger signaling
target	fold induction
PhoP, residues 12 14 15 18 19 QYFSL (Escherichia coli, UniProt P23836)	2.05
PhoP, residues 12 14 15 18 19 NYFRM (Escherichia coli, UniProt P23836)	13.4
PhoP, residues 12 14 15 18 19 TQALL (Escherichia coli, UniProt P23836)	7.65

Sample 5
Target: Ras GTPase-activating protein-binding protein 1, RRM domain (G3BP1, Homo sapiens, UniProt Q13283)
Chain of UniProt Q13283 (whole entry, looked up): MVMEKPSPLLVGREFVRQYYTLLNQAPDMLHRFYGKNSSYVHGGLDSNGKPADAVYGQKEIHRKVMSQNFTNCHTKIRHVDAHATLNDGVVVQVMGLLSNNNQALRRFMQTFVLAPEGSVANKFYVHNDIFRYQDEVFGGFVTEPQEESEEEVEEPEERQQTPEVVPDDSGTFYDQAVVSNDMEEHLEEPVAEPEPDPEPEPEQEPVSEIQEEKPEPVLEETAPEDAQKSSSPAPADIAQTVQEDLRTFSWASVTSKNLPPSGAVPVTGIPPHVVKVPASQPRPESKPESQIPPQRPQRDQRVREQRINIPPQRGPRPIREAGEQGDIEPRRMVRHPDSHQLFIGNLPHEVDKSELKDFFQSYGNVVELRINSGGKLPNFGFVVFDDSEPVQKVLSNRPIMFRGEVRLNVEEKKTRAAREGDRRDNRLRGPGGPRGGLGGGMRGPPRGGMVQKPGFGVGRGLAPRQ
Method: RNA Bind-n-Seq
Form: RNA
Sample: in vitro
Tested at: 1 µM
Setting: whole 134-nt RNA, ends assumed
With: 150 mM KCl
Relative to: input library
Direction: higher = stronger binding
Sequence	log2 enrichment
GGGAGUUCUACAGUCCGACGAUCUGGCCCUGGUGGCAUGCGGGUAGGAAGAGGUGGCCUCAUGGAUCGUGGUGGUCCCGGUGGAAUGUUCAGAGGUGGCCGUGGUGGAGACAGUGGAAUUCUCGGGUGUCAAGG	1.03
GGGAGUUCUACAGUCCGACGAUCCCUGUGCUACACAUCGUAUGUACCGAAUCAAAGUGUGUGUGUGUAAAGUGUGUGUGUAAAAAAGUAUUAUGUUACGCCGUUCGGAUCUGCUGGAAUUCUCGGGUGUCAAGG	-0.156
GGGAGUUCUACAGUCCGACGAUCAGUCCUGUGCUACACAUCGUAUGUACCGAAUCGGAAAAAGGGGAAAAAGGGAAAAAGGAAAGUAUUAUGUUACGCCGUUCGGAUCUGCACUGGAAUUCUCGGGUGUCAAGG	-0.0102
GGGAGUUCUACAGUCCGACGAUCUGCUGUGUCACCGGGAACGCAAAGGCUGGGAAGAAGGCCCUUCUCAAAAUGGACUGGUGUUGCAGGGUGAGAAGCUGCCCCCUGACUUCAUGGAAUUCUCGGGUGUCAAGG	-0.158
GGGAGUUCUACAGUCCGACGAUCUCAAGUCCUGUGCUACACAUCGUAUGUACCGAAUCGGAAAAAGGAGGAAAAAGGAAAGUAUUAUGUUACGCCGUUCGGAUCUGCACUUCCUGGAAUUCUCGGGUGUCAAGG	-0.131
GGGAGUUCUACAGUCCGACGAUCACCAUGCAGGUGGGCAUCUUUGGGAAGUGGGGCAAGGGGGGGAUAGGGAGGGGGGUAACACUUUGGGAACAGGUGGUCCCAGGGCGUUUCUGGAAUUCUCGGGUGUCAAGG	1
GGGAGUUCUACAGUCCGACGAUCUAACUUUAGAGGAGGAUCUGAUGGAUAGGGCAGUGGACGUGGAUUUGGGGAUGGCUAUAAUGGGUAUGGAGGAGGACCUGGAGGUGGCAAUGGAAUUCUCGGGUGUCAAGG	-0.208
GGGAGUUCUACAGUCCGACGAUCUCAAGUCCUGUGCUACACAUCGUAUGUACCGAAUCGGUUUGGGUUUGGGUUUGGAAAGUAUUAUGUUACGCCGUUCGGAUCUGCACUUCCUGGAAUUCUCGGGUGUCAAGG	-0.224
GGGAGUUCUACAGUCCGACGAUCCACAGACAACACGCACCCACACAGACUCAGAGGGAAGGGGUUGGGAUGGGGACAGGGUGCACAGCAGGGCGGGGUAGGACCCCAGCCCCUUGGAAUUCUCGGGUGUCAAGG	-0.00592
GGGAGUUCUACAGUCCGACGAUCCCUCAAGUCCUGUGCUACACAUCGUAUGUACCGAAUCGGGUGGGAGGGUGGGAAAGUAUUAUGUUACGCCGUUCGGAUCUGCACUUCCAGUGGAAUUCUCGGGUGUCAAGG	0.773
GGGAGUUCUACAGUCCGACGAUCAGUCCUGUGCUACACAUCGUAUGUACCGAAUCGGAAAAAAAGGAAAGGUUUUUUUGGAAAGUAUUAUGUUACGCCGUUCGGAUCUGCACUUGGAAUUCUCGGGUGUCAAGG	-0.257
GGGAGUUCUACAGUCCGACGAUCGCAGGAAGUAAUAACAAAUGGAAAUGCUUCGGAUAGUGGCAGGGGUGGGGGUUGCUAAGGAAAGGGUGGGAUGGGAGUGGGUAAAGAGUUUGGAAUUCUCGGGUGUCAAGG	0.96
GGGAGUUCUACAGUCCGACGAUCACCAUGCAGGUGGGCAUCUUUGUGAAGUGGGGCAAGGGGGGGAUAGGGAGGGGGGUAACACUUUGGGAACAGGUGGUCCCAGGUCGUUUCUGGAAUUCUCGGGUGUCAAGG	-0.377
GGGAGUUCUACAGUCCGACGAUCAAGUCCUGUGCUACACAUCGUAUGUACCGAAUCGGAAAAAAAGGAAAGGUUUUUGGAAAGUAUUAUGUUACGCCGUUCGGAUCUGCACUUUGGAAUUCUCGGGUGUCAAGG	-0.196

Excerpt of the above (sample 1):
Sequence	fitted relative affinity [z-score]
TCATGAACCATTTTGGTACTGTGCTAG	0.319
GACGGACTGCTACTACTGACGTGCTAG	0.321
GACGATTTCAGTATCGAGCCGTGCTAG	0.799
CCTTGTGTTACTTTCTACTTGTGCTAG	5.01
TCATGCTTTCTTTTTGCACTGTGCTAG	4.72
